Results from different studies.
Values joined by “and” are separate records of one study, mostly repeats; a detail may differ. ± marks the error that the study gave.
Gria1/Gria2: Glutamate receptor AMPA 1/2 (Gria1/Gria2, Rattus norvegicus, UniProt P19490+P19491)
UniProt P19491, sequence (whole entry, looked up): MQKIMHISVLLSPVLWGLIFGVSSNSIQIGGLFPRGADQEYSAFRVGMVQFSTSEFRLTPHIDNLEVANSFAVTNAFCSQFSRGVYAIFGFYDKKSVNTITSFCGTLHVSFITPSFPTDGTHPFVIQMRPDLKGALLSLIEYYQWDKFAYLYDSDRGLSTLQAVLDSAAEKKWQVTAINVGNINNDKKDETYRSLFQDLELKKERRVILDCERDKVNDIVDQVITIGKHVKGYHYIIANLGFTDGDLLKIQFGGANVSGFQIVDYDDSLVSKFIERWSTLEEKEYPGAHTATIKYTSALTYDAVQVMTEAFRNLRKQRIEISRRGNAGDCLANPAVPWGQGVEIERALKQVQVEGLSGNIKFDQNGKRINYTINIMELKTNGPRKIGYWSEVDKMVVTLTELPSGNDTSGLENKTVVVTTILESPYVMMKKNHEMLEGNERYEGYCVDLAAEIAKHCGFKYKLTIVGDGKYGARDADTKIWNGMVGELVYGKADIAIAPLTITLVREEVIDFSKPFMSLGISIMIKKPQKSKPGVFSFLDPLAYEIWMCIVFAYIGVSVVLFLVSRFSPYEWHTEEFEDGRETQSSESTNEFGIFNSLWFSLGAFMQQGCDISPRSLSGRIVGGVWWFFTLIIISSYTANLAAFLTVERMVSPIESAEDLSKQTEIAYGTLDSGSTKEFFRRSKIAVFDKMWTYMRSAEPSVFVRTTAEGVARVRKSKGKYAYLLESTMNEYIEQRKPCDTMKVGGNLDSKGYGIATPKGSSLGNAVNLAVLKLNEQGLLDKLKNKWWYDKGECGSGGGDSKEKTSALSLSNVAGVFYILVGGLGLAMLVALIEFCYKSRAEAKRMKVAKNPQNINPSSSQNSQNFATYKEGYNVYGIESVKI
UniProt P19490, sequence (whole entry, looked up): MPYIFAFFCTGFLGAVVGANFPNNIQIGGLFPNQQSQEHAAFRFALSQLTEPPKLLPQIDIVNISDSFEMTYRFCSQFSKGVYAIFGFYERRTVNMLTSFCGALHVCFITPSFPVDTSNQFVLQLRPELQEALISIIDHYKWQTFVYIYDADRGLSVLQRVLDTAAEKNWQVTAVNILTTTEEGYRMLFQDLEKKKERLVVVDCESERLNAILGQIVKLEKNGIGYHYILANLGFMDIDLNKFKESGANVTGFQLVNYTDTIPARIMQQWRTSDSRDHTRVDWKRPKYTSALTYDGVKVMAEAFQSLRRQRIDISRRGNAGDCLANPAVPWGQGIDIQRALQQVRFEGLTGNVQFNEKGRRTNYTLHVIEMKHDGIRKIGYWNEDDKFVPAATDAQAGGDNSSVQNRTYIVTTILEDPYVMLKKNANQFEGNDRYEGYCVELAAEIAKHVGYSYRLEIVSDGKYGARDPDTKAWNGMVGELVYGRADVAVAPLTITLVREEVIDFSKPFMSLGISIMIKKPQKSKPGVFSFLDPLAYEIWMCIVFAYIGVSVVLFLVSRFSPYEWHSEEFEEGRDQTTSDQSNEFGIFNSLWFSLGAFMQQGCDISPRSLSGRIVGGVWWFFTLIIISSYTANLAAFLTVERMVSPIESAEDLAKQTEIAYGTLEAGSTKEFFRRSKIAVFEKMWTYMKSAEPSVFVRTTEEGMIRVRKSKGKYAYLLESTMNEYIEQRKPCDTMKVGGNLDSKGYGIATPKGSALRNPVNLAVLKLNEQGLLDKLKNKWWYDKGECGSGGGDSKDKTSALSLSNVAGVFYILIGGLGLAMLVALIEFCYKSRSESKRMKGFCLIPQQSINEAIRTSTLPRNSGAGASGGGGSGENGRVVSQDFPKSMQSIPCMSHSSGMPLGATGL
Sodium- and chloride-dependent glycine transporter 2: Sodium- and chloride-dependent glycine transporter 2 (Homo sapiens, UniProt Q9Y345)
UniProt Q9Y345, sequence (whole entry, looked up): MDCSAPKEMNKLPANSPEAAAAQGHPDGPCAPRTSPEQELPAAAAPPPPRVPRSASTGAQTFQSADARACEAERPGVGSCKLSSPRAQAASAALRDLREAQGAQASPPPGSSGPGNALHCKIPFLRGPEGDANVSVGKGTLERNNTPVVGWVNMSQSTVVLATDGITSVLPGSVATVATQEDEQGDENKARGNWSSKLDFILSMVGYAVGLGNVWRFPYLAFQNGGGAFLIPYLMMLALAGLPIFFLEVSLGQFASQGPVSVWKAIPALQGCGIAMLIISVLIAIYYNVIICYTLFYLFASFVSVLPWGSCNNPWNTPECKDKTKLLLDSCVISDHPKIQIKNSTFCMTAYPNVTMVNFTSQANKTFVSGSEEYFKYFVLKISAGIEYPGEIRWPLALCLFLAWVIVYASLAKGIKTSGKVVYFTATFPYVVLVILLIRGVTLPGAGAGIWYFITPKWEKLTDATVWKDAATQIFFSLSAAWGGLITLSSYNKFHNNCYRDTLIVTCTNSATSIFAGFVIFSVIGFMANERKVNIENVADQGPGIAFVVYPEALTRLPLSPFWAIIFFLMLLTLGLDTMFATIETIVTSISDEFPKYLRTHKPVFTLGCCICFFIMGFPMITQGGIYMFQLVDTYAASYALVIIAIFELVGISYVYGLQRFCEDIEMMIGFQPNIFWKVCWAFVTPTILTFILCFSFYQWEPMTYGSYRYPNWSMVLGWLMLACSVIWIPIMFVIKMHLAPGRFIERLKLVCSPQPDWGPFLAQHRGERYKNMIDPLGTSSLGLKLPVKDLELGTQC
TARDBP aggregated: TAR DNA-binding protein 43, aggregated (TARDBP, Homo sapiens, UniProt Q13148)
UniProt Q9UGJ0, sequence (whole entry, looked up): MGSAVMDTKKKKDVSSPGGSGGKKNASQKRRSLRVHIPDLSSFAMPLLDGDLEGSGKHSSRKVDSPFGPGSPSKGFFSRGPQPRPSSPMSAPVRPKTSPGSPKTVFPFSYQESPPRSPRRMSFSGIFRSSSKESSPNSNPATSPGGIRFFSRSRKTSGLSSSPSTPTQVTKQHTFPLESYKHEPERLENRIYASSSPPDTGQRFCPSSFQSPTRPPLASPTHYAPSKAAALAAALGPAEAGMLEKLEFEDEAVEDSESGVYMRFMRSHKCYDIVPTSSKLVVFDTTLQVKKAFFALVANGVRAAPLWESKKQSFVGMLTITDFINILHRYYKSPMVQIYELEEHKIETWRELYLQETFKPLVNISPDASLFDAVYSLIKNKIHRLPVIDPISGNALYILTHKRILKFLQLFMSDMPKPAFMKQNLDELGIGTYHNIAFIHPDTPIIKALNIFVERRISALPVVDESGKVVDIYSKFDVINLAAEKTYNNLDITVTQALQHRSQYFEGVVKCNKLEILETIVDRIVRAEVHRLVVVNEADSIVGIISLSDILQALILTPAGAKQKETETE
UniProt P28482, sequence (whole entry, looked up): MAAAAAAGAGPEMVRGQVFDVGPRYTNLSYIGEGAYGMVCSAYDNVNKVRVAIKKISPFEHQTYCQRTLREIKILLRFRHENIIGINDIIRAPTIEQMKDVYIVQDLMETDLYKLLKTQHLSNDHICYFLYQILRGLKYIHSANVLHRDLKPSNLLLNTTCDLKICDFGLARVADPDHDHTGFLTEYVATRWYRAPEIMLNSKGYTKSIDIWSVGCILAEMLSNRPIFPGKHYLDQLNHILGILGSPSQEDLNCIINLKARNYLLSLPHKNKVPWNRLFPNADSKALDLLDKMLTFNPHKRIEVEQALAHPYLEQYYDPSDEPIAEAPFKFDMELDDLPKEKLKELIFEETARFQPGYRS
UniProt Q7Z5P4, sequence (whole entry, looked up): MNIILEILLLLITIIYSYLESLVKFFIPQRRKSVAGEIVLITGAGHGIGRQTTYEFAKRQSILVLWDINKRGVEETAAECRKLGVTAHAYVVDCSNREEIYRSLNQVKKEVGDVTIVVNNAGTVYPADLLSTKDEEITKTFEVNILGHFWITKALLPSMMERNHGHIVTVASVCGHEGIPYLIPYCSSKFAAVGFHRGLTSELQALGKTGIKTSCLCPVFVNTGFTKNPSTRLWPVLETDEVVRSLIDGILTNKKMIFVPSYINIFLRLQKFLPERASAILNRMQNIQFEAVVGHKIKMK
UniProt Q13148, sequence (whole entry, looked up): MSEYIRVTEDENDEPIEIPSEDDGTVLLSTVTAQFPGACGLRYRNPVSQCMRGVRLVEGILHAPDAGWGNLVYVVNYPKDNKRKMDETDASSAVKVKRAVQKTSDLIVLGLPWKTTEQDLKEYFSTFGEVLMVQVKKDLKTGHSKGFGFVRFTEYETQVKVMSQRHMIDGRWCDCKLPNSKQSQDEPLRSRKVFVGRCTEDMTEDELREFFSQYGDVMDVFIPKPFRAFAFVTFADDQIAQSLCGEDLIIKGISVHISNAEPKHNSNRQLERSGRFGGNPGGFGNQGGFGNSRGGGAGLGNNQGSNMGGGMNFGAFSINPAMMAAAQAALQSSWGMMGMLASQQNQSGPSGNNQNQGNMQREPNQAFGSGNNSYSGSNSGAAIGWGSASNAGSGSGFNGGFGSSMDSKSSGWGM
UniProt P17706, sequence (whole entry, looked up): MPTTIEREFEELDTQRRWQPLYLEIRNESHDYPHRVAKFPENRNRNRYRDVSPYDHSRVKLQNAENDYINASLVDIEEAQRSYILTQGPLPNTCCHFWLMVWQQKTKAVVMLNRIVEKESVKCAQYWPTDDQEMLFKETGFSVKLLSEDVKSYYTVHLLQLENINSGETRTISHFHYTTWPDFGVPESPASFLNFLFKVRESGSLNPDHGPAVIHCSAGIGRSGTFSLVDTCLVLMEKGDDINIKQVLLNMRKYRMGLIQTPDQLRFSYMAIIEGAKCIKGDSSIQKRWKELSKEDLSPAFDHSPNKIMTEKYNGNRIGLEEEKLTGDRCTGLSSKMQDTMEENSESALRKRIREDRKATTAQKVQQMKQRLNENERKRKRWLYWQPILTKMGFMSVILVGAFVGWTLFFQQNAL
UniProt Q53HV7, sequence (whole entry, looked up): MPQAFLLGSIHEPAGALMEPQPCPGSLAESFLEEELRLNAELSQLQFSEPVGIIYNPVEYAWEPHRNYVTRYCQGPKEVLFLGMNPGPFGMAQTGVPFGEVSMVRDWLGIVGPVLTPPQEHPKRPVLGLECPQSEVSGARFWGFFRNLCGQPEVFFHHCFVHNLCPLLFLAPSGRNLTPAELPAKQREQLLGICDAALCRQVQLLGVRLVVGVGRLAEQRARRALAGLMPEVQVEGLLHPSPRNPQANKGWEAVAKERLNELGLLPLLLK

SMILES	tested on	test	system	setting	scale	measurement	value
CCCCCCCCCCCCC/C=C/C=O	PHGDH (Homo sapiens, UniProt O43175)	competitive isoTOP-ABPP	Ramos soluble proteome	100 µM, 60 min, added: iodoacetamide probe	reference: DMSO over compound-treated, higher = stronger cysteine blockade	isoTOP-ABPP competition ratio	1
CC(C)[C@@H]1NC(=O)[C@H](Cc2ccccc2)NC(=O)CSC[C@@H](C(N)=O)NC(=O)[C@H](CCC(=O)O)NC(=O)[C@H](CO)NC(=O)[C@H](Cc2c[nH]c3cccc(Cl)c23)NC(=O)[C@H](C2CCCCC2)NC(=O)[C@H](C(C)C)NC(=O)[C@H](Cc2ccc(O)cc2)NC(=O)[C@H](CC(=O)O)NC(=O)[C@H](Cc2c[nH]c3ccccc23)NC(=O)[C@H](Cc2ccc(N)nc2)NC(=O)[C@H](Cc2c[nH]c3ccc(Cl)cc23)NC(=O)[C@H](CCC(=O)O)NC1=O	Interleukin-1 receptor-like 2 (IL1RL2, Homo sapiens, UniProt Q9HB29)	reporter gene (SEAP), inhibitor, HEK-Blue IL-36R reporter	HEK-Blue IL-36R cells	0.41 µM, 6 h, added: IL-36γ 30 ng/mL	–	remaining activity	101%
COC(=O)Cc1cc2c(cc1C(=O)c1ccccc1Cl)OCO2	Gria1/Gria2	glutamate-evoked current, whole-cell patch clamp	HEK-293T	concentration not given, glutamate alone after washout, added: glutamate	–	current amplitude after recovery	539 ± 39 pA
Cn1c(=O)n(C2CCC(=O)NC2=O)c2ccc(C3CCN(CC(=O)Nc4cccc(CS(=O)(=O)N5CC[C@H](Nc6cccc(-c7sc(C(=O)O)c(OCC(=O)O)c7Cl)c6)CC5(C)C)c4)CC3)cc21 (some centres unmarked)	PTPN2 (Homo sapiens, UniProt P17706)	degrader, bio-layer interferometry	–	1000 nM, biotinylated protein immobilised	higher = more binding	BLI binding response	0.402 a.u. and 0.425 a.u.
CC(=O)C12NC(C)(C)CC1(C)C(=O)C1=C2c2c(c3c4n2C(C)(C)CC2=C4C4(CC(C)(C)NC(C)(C4)C2=O)CC3(C)C)C(=O)C(C)(C)N1 (single isomer, unassigned; (-))	CHRNA7 (Homo sapiens, UniProt P36544)	ion current, agonist, whole-cell patch clamp	HEK293T	10 µM	–	activation	0.59 ± 0.01%
CCCCCC(O)/C=C/C=O (centres unmarked)	T-complex protein 1 subunit eta (Homo sapiens, UniProt Q99832)	competitive isoTOP-ABPP, item: CCT7 cysteine peptide	Ramos soluble proteome	100 µM, added: iodoacetamide probe	reference: DMSO over compound-treated, higher = stronger cysteine blockade	isoTOP-ABPP competition ratio	1.6
COc1cc2ncnc(Nc3ccc(Oc4ccccc4C)cc3)c2cc1OC	SMUG1 (Homo sapiens, UniProt Q53HV7)	enzyme activity, activator, fluorescence	–	2 µM	reference: control	activity	120 ± 20%
CCc1cc(O)cc2c(/C=N/NC(=N)NCCc3ccc(Cl)cc3)c[nH]c12	RXFP4 (Homo sapiens, UniProt Q8TDU9, L118S)	–	HEK-293T	–	reference: wild type	Emax	100 ± 7.81%
CC1=CC(C)=[N+]2C1=C(CCCO)c1c(C)cc(C)n1[B-]2(F)F	Sodium- and chloride-dependent glycine transporter 2	MS binding competition	–	10 µM	–	remaining specific binding	109 ± 10.4%
CC(=O)c1cnc(NS(=O)(=O)c2ccc(Cl)c(Cl)c2)nc1	17-beta-hydroxysteroid dehydrogenase 13 (Homo sapiens, UniProt Q7Z5P4)	enzyme activity	human hepatocytes, HSD17B13 siRNA, culture medium	24 h	reference: scramble siRNA control	oxidized product ratio	0.0211 and 0.0333 and 0.0318 and 0.0354
Cc1cc(-c2ccccc2)cc(C(=O)NNS(=O)(=O)c2ccccc2)c1F	KAT5 (Homo sapiens, UniProt Q92993)	SPR	–	50 µM	higher = more binding	SPR binding response	0.913 RU
NC(=NO)NCCC[C@H](N)C(=O)O	Arginase (Schistosoma mansoni, UniProt Q6WVP6)	isothermal titration calorimetry	–	–	–	stoichiometry first site	0.77 ± 0.03
O=C(O)Cc1cc2c(cc1C(=O)c1cccc(Br)c1)OCO2	Gria1/Gria2	whole-cell patch clamp	HEK-293T	concentration not given, added: glutamate	–	desensitization time constant	3.7 ± 0.3 ms
N[C@H]1CC[C@H](Nc2nccc(-c3cccnc3Oc3ccc(NC(=O)NC4CC4)c4ccccc34)n2)CC1	PRKAG2 (Homo sapiens, UniProt Q9UGJ0)	kinobead competition pulldown	HEK293/HCT116 lysate mixture	10 µM, 1 h, 4 °C	lower = stronger competition	log2 LFQ intensity	23.7 and 23.6 and 23.4
O=C(O)C[C@H]1C[C@H](O)CN1 (relative stereo)	Sodium- and chloride-dependent glycine transporter 2	MS binding competition	–	10 µM	–	remaining specific binding	104 ± 6.5%
O=C(O)Cc1cc2c(cc1C(=O)c1ccccc1I)OCO2	Gria1/Gria2	glutamate-evoked current, whole-cell patch clamp	HEK-293T	concentration not given	reference: glutamate alone	current amplitude ratio	2.43 ± 0.2
CN(Cc1ccc(/C=C/C(=O)NO)cc1)CC12CC3CC(CC(C3)C1)C2	MMP-9	enzyme activity	–	0.05 µM	–	inhibition	10%
O=C1c2sc(-c3ccc(N4CCC(F)C4)nc3F)nc2CCN1c1cccnc1 (centres unmarked)	TARDBP aggregated	radioligand binding	human, FTLD-TDP type B sarkosyl-insoluble extract	26.56 nM	–	specific binding	1.37 nM and 1.68 nM
CN(C)CCCSc1nc(-c2ccccc2)nc2c1CCC2	Trypanosoma cruzi	reporter mRNA translation, inhibitor, item: capped polyadenylated Renilla luciferase mRNA	cell-free extract	concentration not given	reference: positive over negative control	translation activity	105% and 111% and 102%
COc1ccc(CN2CC3CCCCN3C2=O)cc1 (centres unmarked)	Uridine nucleoside ribohydrolase (Trichomonas vaginalis, UniProt A2FTT0)	19F NMR	–	50 µM	–	inhibition	55.7%
CCOC(=O)CCCc1cccc2c(-c3ccc(Oc4ccccc4)cc3)ccnc12	Glideosome-associated protein 50 (GAP50, Plasmodium falciparum, UniProt Q8I2X3)	binding, surface plasmon resonance	–	1:1 binding model	–	koff	0.0415 s⁻¹
C#CCOC(=O)[C@]1(C)C=C(C(=O)OC(C)(C)C)C(=O)CC1	MAPK1 (Homo sapiens, UniProt P28482)	enzyme activity, D-SENSOR	–	44.44 µM, single replicate	–	normalized kinase activity	0.38 and 0.272 and 0.434
Cc1cc(C(=O)N(C)CC2CCCN(CCc3ccc(F)cc3)C2)c(C)o1 (centres unmarked)	Trypanosoma cruzi	reporter mRNA translation, inhibitor, item: Renilla luciferase mRNA	cell-free extract	concentration not given, test 2	reference: positive over negative control	translation activity	121% and 102%
CNC(=O)C[C@H](Cc1ccc(C#N)cc1)NC(=O)c1cc(-c2ccc(CN[C@H](C)c3ccc(C)cc3)o2)ccc1Cl	TTBK2 (Homo sapiens, UniProt Q6IQ55)	enzyme activity, inhibitor	–	1 µM	–	activity vs control	102%
N=C(N)NCCC[C@H](NC(=O)[C@@H]1CCCN1C(=O)[C@H](CCCNC(=N)N)NC(=O)[C@@H]1CCCN1C(=O)[C@H](CCCNC(=N)N)NC(=O)[C@@H]1CCCN1C(=O)[C@H](CCCNC(=N)N)NC(=O)[C@@H]1CCCN1C(=O)[C@H](CCCNC(=N)N)NC(=O)[C@@H]1CCCN1C(=O)[C@H](CCCNC(=N)N)NC(=O)[C@@H]1CCCN1C(=O)[C@H](CCCNC(=N)N)NC(=O)[C@@H]1CCCN1C(=O)[C@H](CCCNC(=N)N)NC(=O)[C@@H]1CCCN1C(=O)[C@H](CCCNC(=N)N)NC(=O)[C@@H]1CCCN1C(=O)[C@H](CCCNC(=N)N)NC(=O)[C@@H]1CCCN1C(=O)[C@H](CCCNC(=N)N)NC(=O)[C@@H]1CCCN1C(=O)[C@H](CCCNC(=N)N)NC(=O)[C@@H]1CCCN1C(=O)[C@H](CCCNC(=N)N)NC(=O)[C@@H]1CCCN1C(=O)[C@H](CCCNC(=N)N)NC(=O)[C@@H]1CCCN1C(=O)[C@H](CCCNC(=N)N)NC(=O)[C@@H]1CCCN1C(=O)[C@H](CCCNC(=N)N)NC(=O)[C@@H]1CCCN1C(=O)[C@H](CCCNC(=N)N)NC(=O)[C@@H]1CCCN1C(=O)[C@H](CCCNC(=N)N)NC(=O)[C@@H]1CCCN1C(=O)[C@H](CCCNC(=N)N)NC(=O)[C@@H]1CCCN1C(=O)[C@H](CCCNC(=N)N)NC(=O)[C@@H]1CCCN1C(=O)[C@H](CCCNC(=N)N)NC(=O)[C@@H]1CCCN1C(=O)[C@H](CCCNC(=N)N)NC(=O)[C@@H]1CCCN1C(=O)[C@H](CCCNC(=N)N)NC(=O)[C@@H]1CCCN1C(=O)[C@H](Cc1ccc(O)cc1)NC(=O)[C@H](CO)NC(=O)CN)C(=O)O	Nucleophosmin (NPM1, Homo sapiens, UniProt P06748)	SANS P(r) analysis	–	3 molar excess over NPM1, 25 °C	–	radius of gyration	98.9 ± 1.5 Å
CC(=O)N1c2ccc(-c3ccc(CNC(=O)c4cn5cc(-c6cnc(N)nc6)nc(N6CCOCC6)c5n4)cc3)cc2CC[C@@H]1C	BRD9 (Homo sapiens, UniProt Q9H8M2)	binding, competition with immobilised ligand	–	10 µM	–	remaining binding	76%
OC[C@H]1c2[nH]cnc2[C@H](O)[C@@H](O)[C@@H]1O	bglA (Thermotoga maritima, UniProt Q08638)	ITC	–	pH 5.8, 25 °C	–	-ΔS	-2.94 ± 0.335 kcal/mol
O=C1c2sc(-c3ccc(N4CCC(CO)CC4)nc3F)nc2CCN1c1cccnc1	TARDBP aggregated	binding, surface plasmon resonance	brain-derived TDP-43 aggregates	75 nM	–	SPR response	3.04 RU
C[C@@H](Nc1nc(N[C@H](C)C(F)(F)F)nc(-c2cccc(Cl)n2)n1)C(F)(F)F	IDH1 (Homo sapiens, UniProt O75874, R132S)	–	–	1 h preincubation	–	maximum inhibition	96.7 ± 8.8%
